Published values collected from several papers.
Each line is one published result; not all experiments were run side by side. ± gives the spread as reported.
B1: enzyme (Treponema denticola, UniProt Q73LY9); chain QTNGTMPKRKFVIAFHASVNTDKTGKNLIKELPDLQKRGINTLFLEIGYNYQWKSDPKLYNKYVLSETVAREIAAECRRLSIDLIPEINCLGHQSWENETFALLKAYPELDETPGLYPSNKDIYCRSLCSSNEKVYTILFGLIDEITEVFSVKKIHVGLDEVFLIGEDACPLCRGKDKAELFAGAVNRLYDHCVKKRGFTMYMWGDRLIDSEDEDSGYKGEYESSCNGTYPAVDLIPKDIIICDWHYDELERYGSIPYFLNKGFRVLPTSFKGIKAVNALIDYSLLYKDNPAMLGHMYTAWDNFTNKNLSRYKPMVKTIDKLKAGN
B2: aspC A106G/A17N/A218G/A278L/A281T/A8Q/D18E/F210I/F212I/F350Y/G15S/G249S/I187A/I279A/I29V/I33V/I341V/I5L/I68L/I71L/L46M/M321L/M380L/N285S/N30D/N64T/S129T/S135A/S273G/S351L/T100S/V125I/V136I/V375I/Y244C (Escherichia coli, UniProt P00509); chain MFENLTAQPADPILSLNELFRADERPGKVDLGVGVYKDETGKTPVMTSVKKAEQYLLENETTKTYLGLDGLPEFGRCTQELLFGKGSALINDKRARTAQSPGGTGGLRVAADFLAKNTSVKRVWISNPTWPNHKAIFNSAGLEVREYAYYDAENHTLDFDALINSLNEAQAGDVVLFHGCCHNPTGADPTLEQWQTLAQLSVEKGWLPLIDIAYQGFGRGLEEDAEGLRAFAAMHKELIVASSCSKNFSLYNERVGACTLVAADSETVDRAFGQMKALARTNYSSPPAHGASVVATILSNDALRAIWEQELTDMRQRIQRLRQLFVNTLQEKGANRDFSFVIKQNGMFSYLGLTKEQVLRLREEFGVYAVASGRINVAGLTPDNMAPLCEAIVAVL
B3: enzyme (Azotobacter vinelandii, UniProt C1DN94); chain MSESPLRLDRLRDFVSALGELLDRHPDEESVLREGRSLLGELVRHDDWLPEEFAQPDPERYQQYLLHADSRQRFSVVSFVWGPGQTTPVHDHRVWGLIGMLRGAEDAQSFELGAEGLRPIGDPVRLSPGQVEAVSPRIGDIHRVFNASPDQPSISIHVYGANIGAVRRAVYLPDGSEKPFISGYSNQFLPNIWDQSKESARP
B4: enzyme S252E/S281E/S285E/S287E (Schizosaccharomyces pombe, UniProt P78804); chain MSTPYEPEFQQAYKEIVGSIESSKLFEVHPELKRVLPIISIPERVLEFRVTWEDDKGNCRVNTGYRVQFNSALGPYKGGLRFHPSVNLSILKFLGFEQIFKNALTGLPMGGGKGGSDFDPKGKSDNEIRRFSQAFMRQLFRYIGPQTDVPAGDIGVTGFVVMHMFGEYKRLRNEYSGVVTGKHMLTGGSNIRPEATGYGVVYYVKHMIEHRTKGAETLKGKRVAISGSGNVAQYAALKCIQEGAIVKSISDEKGVLIAKTAEGLVPEEIHEIMALKEKRAEIADEAELCKKHHYIAGARPWTNVGEIDIALPCATQNEVSGEEAAALIKQGCRYVAEGSNMGSSAEAVEVFEKSRASGEGCWLAPGKAANAGGVAVSGLEMAQNAQFSTWTHAEVDAKLAGIMQNIFEQSTDVASKYCDSGSNNIPSLVDGANIAGFLKVATAMQAVGDWW
B5: enzyme (Pseudomonas poae, UniProt A0A2S9EJ63); chain MSTQHYDYIIVGGGSAGSVLANRLSAQADKRVLLIEAGADTPEHDTPTDILDGLQPWLPRLAGERYFWPGLNILRASEHGDIPREPQLYEQARILGGGSSVNMMVANRGLPRDYDEWARLGADGWDWQGVLPYFRKLERDLDFGHSHPEQHGQDGPIPIARVDSRHWGSFTRASAQALHTQGLNDIVDQNGRFEDGYFAPAVAIEHDQRVSSARAYLNAAVRARPNLSVWADTTVRQLTVKGQRVTGVQAVRDGRTVELAGDEVILAAGALQSPAFLLRAGIGPADQLRDLGIEVIADRPGVGRNLWDHSSIGLSASLHHPQVPSDEPGAAHLLAARVSSGVEPSVPGDLYLGIAPNAALGLASAVLWVNKPSSSGHLRLRSKDPADYPAVEFNLLSDRRDLERLRQGLRLLARVFAHPAVAAFSGPPRLSRFAQASNEGPLLSELLANDAQLERYLRTHVGGVWHASGTCRIGRADDPQAVVDHAGRVHGVQGLRVADASVFPSIPTANTNLPTLMIAEKIAEAILANA
B6: CDA (Homo sapiens, UniProt P32320); chain MAQKRPACTLKPECVQQLLVCSQEAKKSAYCPYSHFPVGAALLTQEGRIFKGCNIENACYPLGICAERTAIQKAVSEGYKDFRAIAIASDMQDDFISPCGACRQVMREFGTNWPVYMTKPDGTYIVMTVQELLPSSFGPEDLQKTQ
B7: proteasome subunit alpha-3 (human); sequence looked up; chain SSIGTGYDLSASTFSPDGRVFQVEYAMKAVENSSTAIGIRCKDGVVFGVEKLVLSKLYEEGSNKRLFNVDRHVGMAVAGLLADARSLADIAREEASNFRSNFGYNIPLKHLADRVAMYVHAYTLYSAVRPFGCSFMLGSYSVNDGAQLYMIDPSGVSYGYWGCAIGKARQAAKTEIEKLQMKEMTCRDIVKEVAKIIYIVHDEVKDKAFELELSWVGELTNGRHEIVPKDIREEAEKYAKESLKEEDESDDDNM
B8: PYCR2 R119C (Homo sapiens, UniProt Q96C36); chain MSVGFIGAGQLAYALARGFTAAGILSAHKIIASSPEMNLPTVSALRKMGVNLTRSNKETVKHSDVLFLAVKPHIIPFILDEIGADVQARHIVVSCAAGVTISSVEKKLMAFQPAPKVICCMTNTPVVVQEGATVYATGTHALVEDGQLLEQLMSSVGFCTEVEEDLIDAVTGLSGSGPAYAFMALDALADGGVKMGLPRRLAIQLGAQALLGAAKMLLDSEQHPCQLKDNVCSPGGATIHALHFLESGGFRSLLINAVEASCIRTRELQSMADQEKISPAALKKTLLDRVKLESPTVSTLTPSSPGKLLTRSLALGGKKD
B9: enzyme C434A (Methanosarcina mazei, UniProt Q8PVB1); chain MSEQRSVPLREHLLALKPCRHGGLIQETSETYGIPENEILDFSANFNPLGSPFDYPENGLNFEDIIKKSCGKLLEYPDNRYVEFREAAARFVGLGVTPQSIVPGNGSTEIVRLVVESVIEKGDKVLLPWPTFGEYEMQCRITGAEPVCPSQEEVNTLPDEVLEEAKILFICNPNNPTGKLRTREELKVLAERCREHKTLLYVDEAFIELSDPSQSVADLPAENNYVFVMRSLTKDFAIPGIRMGFGIAPPAMADILNTARLSWNLGAIANNTGIALLNIEGGIDSPYLKKAREMILKEGETLKAKIDRIRGFEAGEVNVNFILVDVSKFMLNSSELTARLAARGVLVRDCVSFHGLGKNYIRVAVRTEKENDRLIAAIGDVITEWGREQAKNELQHVIEKASEEGIGGRKTCEYYPCHFEGQNCTFCFCPFYPAENEKTGGKWIQSSRGGRVWSCVDCHLVHKKEIAQKILDCLMHEGDTDELVKVAWKEVMEPIL
B10: enzyme (Mus musculus, UniProt P60334); chain MERTELLKPRTLADLIRILHELFAGDEVNVEEVQAVLEAYESNPAEWALYAKFDQYRYTRNLVDQGNGKFNLMILCWGEGHGSSIHDHTDSHCFLKLLQGNLKETLFDWPDKKSNEMIKKSERTLRENQCAYINDSIGLHRVENVSHTEPAVSLHLYSPPFDTCHAFDQRTGHKNKVTMTFHSKFGIRTPFTTSGSLENN

Substance = B1 (enzyme); target or system = CC(=O)N[C@H]1[C@H](Oc2ccc([N+](=O)[O-])cc2)O[C@H](CO)[C@@H](O)[C@@H]1O[C@@H]1O[C@H](CO)[C@H](O)[C@H](O)[C@H]1O; test = steady-state kinetics; setting = pH 6, 40 °C; measurement = kcat/Km; value = 100 M⁻¹ s⁻¹
Substance = enzyme (Bacteroides fragilis, UniProt Q5LAD6); target or system = C[C@@H]1O[C@@H](Oc2ccc([N+](=O)[O-])cc2)[C@@H](O)[C@H](O)[C@@H]1O; test = steady-state kinetics; setting = pH 7, 37 °C; measurement = kcat/Km; value = 3950 M⁻¹ s⁻¹
Substance = B2; target or system = N[C@@H](Cc1ccccc1)C(=O)O; test = steady-state kinetics; setting = pH 7.5, 25 °C, together with: PMP 20 µM; measurement = kcat/Km; value = 200 M⁻¹ s⁻¹
Substance = B3 (enzyme); target or system = O=C(O)CCS; test = steady-state kinetics; setting = pH 8, 25 °C, together with: O2; measurement = kcat/Km; value = 72000 ± 9200 M⁻¹ s⁻¹
Substance = enzyme (UniProt A0A097IUD8); target or system = C=C(OP(=O)(O)O)C(=O)O; test = steady-state kinetics; setting = pH 6, 25 °C, together with: 2 mM ADP; measurement = kcat/Km; value = 24000 M⁻¹ s⁻¹
Substance = B4 (enzyme S252E/S281E/S285E/S287E); target or system = NC(=O)C1=CN([C@@H]2O[C@H](COP(=O)(O)OP(=O)(O)OC[C@H]3O[C@@H](n4cnc5c(N)ncnc54)[C@H](OP(=O)(O)O)[C@@H]3O)[C@@H](O)[C@H]2O)C=CC1; test = steady-state kinetics; setting = pH 7, 30 °C, apparent; measurement = kcat/Km; value = 100000 ± 10000 M⁻¹ s⁻¹
Substance = enzyme N248Y/Q325R/R246H/R328K/S219F (Arabidopsis thaliana, UniProt O24495); target or system = C[C@@H](O)C(=O)SC[C@H](NC(=O)CC[C@H](N)C(=O)O)C(=O)NCC(=O)O; test = steady-state kinetics; setting = pH 7.2, 25 °C; measurement = kcat/Km; value = 70000 ± 30000 M⁻¹ s⁻¹
Substance = B5 (enzyme); target or system = O=Cc1ccc(C=O)o1; test = steady-state kinetics; setting = pH 8, 30 °C, together with: 2 µM FAD; measurement = kcat/Km; value = 3.36 M⁻¹ s⁻¹
Substance = gdh N192L/N97F (Bacillus subtilis); target or system = NC(=O)c1ccc[n+]([C@@H]2O[C@H](COP(=O)(O)OP(=O)(O)OC[C@H]3O[C@@H](n4cnc5c(N)ncnc54)[C@H](O)[C@@H]3O)[C@@H](O)[C@H]2O)c1; test = steady-state kinetics; setting = pH 7, 50 °C; measurement = kcat/Km; value = 63200 ± 4500 M⁻¹ s⁻¹
Substance = B6 (CDA); target or system = Nc1nc(=O)n([C@@H]2O[C@H](CO)[C@@H](O)[C@H]2F)cc1-c1ccco1; test = steady-state kinetics; setting = pH 7.4, 37 °C; measurement = kcat/Km; value = 50000 M⁻¹ s⁻¹
Substance = B7 (proteasome subunit alpha-3); target or system = CYB5R4 knockout human cells; test = PP4 interaction, 3xFLAG-PP4C IP-MS; setting = concentration not given; scale = baseline: CYB5R4 KO over parental; measurement = log2 fold change; value = 0.0231
Substance = enzyme (Mycobacteroides abscessus, UniProt B1MGE0); target or system = C/C(=C\C=C(/O)C(=O)O)C(=O)CC[C@@H]1C(=O)CC[C@]2(C)C(=O)CC[C@@H]12; test = steady-state kinetics; setting = pH 7.5, 25 °C; measurement = kcat/Km; value = 1.1e+06 M⁻¹ s⁻¹
Substance = B8 (PYCR2 R119C); target or system = O=C(O)[C@@H]1CCC=N1; test = steady-state kinetics; setting = pH 7.5, 37 °C, apparent, together with: NADH 500 µM; measurement = kcat/Km; value = 250 ± 80 M⁻¹ s⁻¹
Substance = enzyme (Populus trichocarpa, UniProt A0A2K2BRQ9); target or system = O=C(OCc1ccccc1)c1ccccc1O; test = steady-state kinetics; setting = pH 7, 25 °C; measurement = kcat/Km; value = 38000 ± 10400 M⁻¹ s⁻¹
Substance = bcp (Escherichia coli, UniProt P0AE52); target or system = CC(C)(C)OO; test = steady-state kinetics; setting = pH 7, 25 °C, apparent; measurement = kcat/Km; value = 220 M⁻¹ s⁻¹
Substance = enzyme (Pseudanabaena biceps, UniProt L8N0N6); target or system = NC(=O)c1ccc[n+]([C@@H]2O[C@H](COP(=O)(O)OP(=O)(O)OC[C@H]3O[C@@H](n4cnc5c(N)ncnc54)[C@H](O)[C@@H]3O)[C@@H](O)[C@H]2O)c1; test = steady-state kinetics; setting = pH 7.4, 30 °C, apparent, cofactor varied; measurement = kcat/Km; value = 6960 ± 860 M⁻¹ s⁻¹
Substance = efeB (Bacillus subtilis, UniProt P39597); target or system = CN(C)c1ccc(C(=C2C=CC(=[N+](C)C)C=C2)c2ccccc2)cc1; test = steady-state kinetics; setting = pH 4, 25 °C, apparent; measurement = kcat/Km; value = 5800 M⁻¹ s⁻¹
Substance = putA (Escherichia coli, UniProt P09546); target or system = COC1=C(OC)C(=O)C(C/C=C(\C)CCC=C(C)C)=C(C)C1=O; test = steady-state kinetics; setting = pH 7.4, 20 °C, together with: proline 200 mM; measurement = kcat/Km; value = 87000 ± 23000 M⁻¹ s⁻¹
Substance = enzyme (Lactiplantibacillus plantarum, UniProt Q06115); target or system = CC(C)C[C@H](NC(=O)CC[C@@H](C)[C@H]1CC[C@H]2[C@@H]3[C@H](O)C[C@@H]4C[C@H](O)CC[C@]4(C)[C@H]3C[C@H](O)[C@]12C)C(=O)O; test = steady-state kinetics; setting = pH 6.2, 37 °C; measurement = kcat/Km; value = 617 ± 66.7 M⁻¹ s⁻¹
Substance = B9 (enzyme C434A); target or system = Nc1ncnc2c1ncn2[C@@H]1O[C@H](COP(=O)(O)OP(=O)(O)OP(=O)(O)O)[C@@H](O)[C@H]1O; test = steady-state kinetics; setting = pH 8.5, 25 °C, apparent, anoxic, together with: L-Thr 10 mM; measurement = kcat/Km; value = 1170 ± 310 M⁻¹ s⁻¹
Substance = B10 (enzyme); target or system = N[C@@H](CS)C(=O)O; test = steady-state kinetics; setting = pH 7.5, 37 °C; measurement = kcat/Km; value = 180 M⁻¹ s⁻¹

Some of these lines once more:
Substance = B5 (enzyme); target or system = O=Cc1ccc(C=O)o1; test = steady-state kinetics; setting = pH 8, 30 °C, together with: 2 µM FAD; measurement = kcat/Km; value = 3.36 M⁻¹ s⁻¹
